Experimental data from different studies.
Each numbered part is a random draw from the data of one study; scales do not carry over between parts.

Sample 1 — read-out: enzyme activity; mode: inhibitor; concentration: 20 µM; quantity: inhibition
Target: Replicase polyprotein 1ab, polymerase (rep, Severe acute respiratory syndrome coronavirus 2, UniProt P0DTD1)
CC[C@H](C)C(=O)O[C@H]1C[C@H](O)C=C2C=C[C@H](C)[C@H](CC[C@@H](O)C[C@@H](O)CC(=O)O)[C@H]21: -0.21%
CC(C)(Sc1ccc(CCN(CCCCC2CCCCC2)C(=O)NC2CCCCC2)cc1)C(=O)O: -0.32%
O=C(O)Cc1ccc(CCNS(=O)(=O)c2ccc(Cl)cc2)cc1: 2.75%
CO[C@@H]1[C@H](N(C)C(=O)c2ccccc2)C[C@H]2O[C@]1(C)n1c3ccccc3c3c4c(c5c6ccccc6n2c5c31)C(=O)NC4: 4.32%
COC(=O)C[C@](O)(CCC(C)(C)O)C(=O)O[C@@H]1C(OC)=C[C@]23CCCN2CCc2cc4c(cc2[C@H]13)OCO4: -1.86%
CN[C@@H](C)C(=O)N[C@H](C(=O)N1CCC[C@H]1C(=O)N[C@H]1c2ccccc2C[C@H]1OCC#CC#CCO[C@@H]1Cc2ccccc2[C@@H]1NC(=O)[C@@H]1CCCN1C(=O)[C@@H](NC(=O)[C@H](C)NC)C1CCCCC1)C1CCCCC1: 7.25%
NC(=S)N/N=C/c1ncccc1N: 0.08%
c1ccc(C(NCCNC(c2ccccc2)c2ccccc2)c2ccccc2)cc1: -1.61%
NC(=O)c1ccc(N(C(N)=O)c2c(F)cccc2F)nc1-c1ccc(F)cc1F: -2.31%
COc1cc2cc(c1Cl)N(C)C(=O)C[C@H](OC(=O)C(C)C)[C@]1(C)O[C@@H]1[C@H](C)[C@@H]1C[C@@](O)(NC(=O)O1)[C@H](OC)/C=C/C=C(\C)C2: 3.72%
CC(=O)CC(=O)O: 4.3%
O=C(O)CNC(=O)C(CS)Cc1ccccc1 (stereo not drawn): 0.01%
Cc1ccccc1-c1cc(N2CCN(C)CC2)ncc1N(C)C(=O)C(C)(C)c1cc(C(F)(F)F)cc(C(F)(F)F)c1: -9.39%
COc1ccc(NC(=O)c2ccc(C(=N)N(C)C)cc2)c(C(=O)Nc2ccc(Cl)cn2)c1: 6.12%
CC(=O)O[C@@H]1CC[C@@]2(C)[C@@H](CC[C@]3(C)[C@@H]2C(=O)C=C2[C@@H]4[C@@H](C)[C@H](C)CC[C@]4(C)CC[C@]23C)[C@@]1(C)C(=O)O: -1%
CC(CCc1ccccc1)NCC(O)c1ccc(O)c(C(N)=O)c1 (stereo not drawn): -1.32%

Sample 2 — method: universal PBM; molecule type: double-stranded DNA, one strand shown; matrix: in vitro; concentration: 600 nM; direction: higher = stronger binding; quantity: E-score
Target: Sal-like protein 4, full length isoform A (SALL4, Homo sapiens, UniProt Q9UJQ4, residues 1-1053)
Sequence of UniProt Q9UJQ4 (whole entry, looked up): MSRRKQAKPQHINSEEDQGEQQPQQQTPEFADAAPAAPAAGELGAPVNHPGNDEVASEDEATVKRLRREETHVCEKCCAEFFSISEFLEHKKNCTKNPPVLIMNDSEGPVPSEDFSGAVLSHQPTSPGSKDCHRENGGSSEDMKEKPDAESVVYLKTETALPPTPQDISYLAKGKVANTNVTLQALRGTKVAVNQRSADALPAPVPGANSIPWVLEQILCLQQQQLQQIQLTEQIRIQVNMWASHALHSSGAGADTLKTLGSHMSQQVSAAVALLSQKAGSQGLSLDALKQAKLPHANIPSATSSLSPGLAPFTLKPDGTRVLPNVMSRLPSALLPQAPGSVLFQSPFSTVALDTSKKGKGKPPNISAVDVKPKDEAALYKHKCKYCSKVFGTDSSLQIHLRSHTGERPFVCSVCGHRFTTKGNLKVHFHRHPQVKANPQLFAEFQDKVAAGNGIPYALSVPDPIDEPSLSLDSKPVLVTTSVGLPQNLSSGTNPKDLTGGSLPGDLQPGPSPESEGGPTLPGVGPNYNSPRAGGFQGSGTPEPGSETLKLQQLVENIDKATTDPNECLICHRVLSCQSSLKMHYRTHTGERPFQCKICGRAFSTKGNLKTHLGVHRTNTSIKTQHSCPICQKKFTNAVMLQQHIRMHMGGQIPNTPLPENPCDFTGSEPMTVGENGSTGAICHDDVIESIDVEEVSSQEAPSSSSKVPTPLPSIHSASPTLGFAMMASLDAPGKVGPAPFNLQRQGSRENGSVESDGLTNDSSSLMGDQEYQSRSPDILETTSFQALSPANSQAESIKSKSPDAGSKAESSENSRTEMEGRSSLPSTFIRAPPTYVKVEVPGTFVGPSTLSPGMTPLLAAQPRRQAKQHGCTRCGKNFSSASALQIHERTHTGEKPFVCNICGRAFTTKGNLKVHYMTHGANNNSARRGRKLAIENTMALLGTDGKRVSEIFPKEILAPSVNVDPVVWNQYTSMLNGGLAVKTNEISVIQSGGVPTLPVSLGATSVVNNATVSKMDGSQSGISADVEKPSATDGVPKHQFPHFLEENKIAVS
Setting: 8-mer, flanks averaged, mean of replicates
GAGGATTA: 0.0926
CCCCCTAA: -0.0895
TTAAACAA: 0.204
CGTCATGA: -0.0812
CCTACGTC: -0.0909
GCTGCATA: 0.0573
CCGTGTAA: -0.0568
CTTTTGAA: 0.079

Sample 3 — cell line: HEK-293T; read-out: pseudovirus infection; organism: VSV pseudotyped with SARS-CoV-2 spike; concentration: 10 µM; time: 16 h; relative to: vehicle-treated; quantity: GFP-positive cells
CN(C)C/C=C/C(=O)Nc1cc2c(Nc3ccc(F)c(Cl)c3)ncnc2cc1O[C@H]1CCOC1: 49.8%
COC(=O)N[C@H](C(=O)N[C@@H](Cc1ccccc1)[C@@H](O)CN(Cc1ccc(-c2ccccn2)cc1)NC(=O)[C@@H](NC(=O)OC)C(C)(C)C)C(C)(C)C: 102%
O=c1[nH]cnc2c1ncn2[C@H]1CC[C@@H](CO)O1: 71.3%

Sample 4 — method: phase 2a clinical trial; measured: injury and poisoning (SOC); host: idiopathic pulmonary fibrosis patients; quantity: patients with TEAEs
SMILES: CC(C)n1cnc(-c2ccc(F)cc2)c1-c1ncc(C(=O)Nc2ccc(N3CCN(C)CC3)cc2)[nH]1
60 mg once daily, grade 3 maximum intensity; relative to: patients: 1%
60 mg once daily, grade 1 maximum intensity: 0%
30 mg once daily, grade 5 maximum intensity: 0%
dose not given, grade 1, all drug arms: 0%
30 mg once daily, grade 2 maximum intensity: 0%
dose not given, grade 3, all drug arms; relative to: patients: 1%

Sample 5 — read-out: enzyme activity; mode: inhibitor; quantity: IC50
Target: Replicase polyprotein 1ab, main protease (rep, Severe acute respiratory syndrome coronavirus 2, UniProt P0DTD1)
CCOc1cc(C(Nc2cc(C)ccn2)c2ccc3cccnc3c2O)ccc1OC (stereo not drawn): > 20 µM
O=C(c1ccc(Cl)cc1)c1cc([N+](=O)[O-])ccc1N1CCOCC1: > 20 µM
NC(Cc1cc(O)c(O)cc1O)C(=O)O (stereo not drawn): > 20 µM

Repeated from above (sample 5):
CCOc1cc(C(Nc2cc(C)ccn2)c2ccc3cccnc3c2O)ccc1OC (stereo not drawn): > 20 µM
O=C(c1ccc(Cl)cc1)c1cc([N+](=O)[O-])ccc1N1CCOCC1: > 20 µM
NC(Cc1cc(O)c(O)cc1O)C(=O)O (stereo not drawn): > 20 µM
